Experimental data gathered from unrelated publications.
Each line is one published result; not all experiments were run side by side. ≈ marks a conversion by molar mass, not a printed value.
Organism: Mycobacterium tuberculosis

Structure (SMILES) | method | strain | medium | time | pH | notes | MIC
Cc1ccc(NCc2ccc(Oc3ccccn3)cc2)cc1 |  | H37Rv | 7H9/ADC/Tween medium | 1 weeks |  |  | 86 µM (≈ 25 µg/mL)
Cc1ccn2c(C(=O)NCc3ccccc3)c(C)nc2c1 | microplate alamar blue | H37Rv (ATCC 27294) | 7H12 medium |  |  | replicating bacteria, range | 1.9 to 2.7 µM (≈ 0.531 to 0.754 µg/mL)
Nc1ncnc2c1ncn2[C@@H]1O[C@H](COS(=O)(=O)NC(=O)CCCCCCCCCCOc2ccc(F)cc2)[C@@H](O)[C@H]1O | broth microdilution | H37Rv | GAST medium |  |  | MIC at >99% growth inhibition | 12.5 to 25 µM (≈ 7.81 to 15.6 µg/mL)
Cc1cccc(NCc2ccc(Oc3ccccn3)cc2)c1 |  | H37Rv | 7H9/ADC/Tween medium | 2 weeks |  |  | > 100 µM
CCCCCCCCC[C@@H]1C[C@@H]1C(=O)NS(=O)(=O)OC[C@H]1O[C@@H](n2cnc3c(N)ncnc32)[C@H](O)[C@@H]1O | broth microdilution | H37Rv | GAST medium |  |  | MIC at >99% growth inhibition | 50 to 100 µM (≈ 27 to 54.1 µg/mL)
CCOC(=O)COc1ccc(-c2nc3cc(NC(=O)[C@H](C)Oc4cccc(Cl)c4Cl)ccc3o2)cc1 |  | H37Rv ATCC 27294 | GAST/Fe and 7H9/ADC/Tween | 168 h |  |  | < 1 µM
O=C(OCc1ccccc1)[C@@H]1COC(c2ccccc2)=N1 | microplate alamar blue | H37Rv (ATCC 27294) | 7H12 medium |  |  | replicating bacteria, range | 3.8 to 24 µM (≈ 1.07 to 6.75 µg/mL)
Fc1ccccc1NCc1ccc(Oc2ccccn2)cc1 |  | H37Rv | GAST-Fe medium | week 2 | pH 6.6 |  | 70 µM (≈ 20.6 µg/mL)
Nc1ncnc2c1ncn2[C@@H]1O[C@H](CNS(=O)(=O)NC(=O)CCCCCCCCCCOc2ccccc2)[C@@H](O)[C@H]1O | broth microdilution | H37Rv | GAST medium |  |  | MIC at >99% growth inhibition | 1.56 to 3.13 µM (≈ 0.945 to 1.9 µg/mL)
Cc1nc2ncccn2c1C(=O)OCc1ccccc1 | microplate alamar blue | H37Rv (ATCC 27294) | 7H12 medium |  |  | replicating bacteria, range | 3.2 to 5.2 µM (≈ 0.855 to 1.39 µg/mL)
